Measurements pooled from the literature.
Each line is one published result; not all experiments were run side by side.
PHO4 full length, GST-tagged: Phosphate system positive regulatory protein PHO4, full length, GST-tagged (PHO4, Saccharomyces cerevisiae, UniProt P07270, residues 1-312)
UniProt P07270, sequence (whole entry, looked up): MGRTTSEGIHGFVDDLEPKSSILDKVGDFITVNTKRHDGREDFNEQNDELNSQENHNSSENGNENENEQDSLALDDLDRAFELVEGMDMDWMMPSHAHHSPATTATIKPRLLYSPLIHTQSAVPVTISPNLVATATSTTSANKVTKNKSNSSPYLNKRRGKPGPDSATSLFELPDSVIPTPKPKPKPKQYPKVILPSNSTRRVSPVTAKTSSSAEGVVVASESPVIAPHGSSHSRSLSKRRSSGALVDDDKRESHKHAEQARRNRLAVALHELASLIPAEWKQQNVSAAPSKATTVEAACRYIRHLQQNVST
UNK zinc fingers 1-6, GST-SBP tag: RING finger protein unkempt homolog, zinc fingers 1-6, GST-SBP tag (UNK, Homo sapiens, UniProt Q9C0B0, residues 30-357)
UniProt Q9C0B0, sequence (30-357, looked up): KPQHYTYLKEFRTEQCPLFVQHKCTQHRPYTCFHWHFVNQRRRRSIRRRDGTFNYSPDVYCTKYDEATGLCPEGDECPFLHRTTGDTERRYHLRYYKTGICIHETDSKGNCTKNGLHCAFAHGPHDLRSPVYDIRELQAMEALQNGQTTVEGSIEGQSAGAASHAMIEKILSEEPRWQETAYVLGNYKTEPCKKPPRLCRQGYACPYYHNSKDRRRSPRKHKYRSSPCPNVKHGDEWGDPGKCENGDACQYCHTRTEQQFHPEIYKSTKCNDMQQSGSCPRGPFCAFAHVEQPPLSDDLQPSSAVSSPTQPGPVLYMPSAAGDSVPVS
UNK zinc fingers 1-6, SBP tag: RING finger protein unkempt homolog, zinc fingers 1-6, SBP tag (UNK, Homo sapiens, UniProt Q9C0B0, residues 30-357)

For `TTTACCCCGGTGCTATTCGTGACGGTAACTATGGAAGTCTTGATTCGCTTGACGCTGCTG`, the fluorescence intensity was 4600 a.u. (PHO4 full length, GST-tagged; competition protein-binding microarray; double-stranded DNA, one strand shown, in vitro; 2 µM, whole 60-bp probe, lowest competitor level, together with: Cbf1 competitor, 0.05 µM; higher = stronger binding).
For `GGGAGUUCUACAGUCCGACGAUCGACAUUUCAAAAACAGGAGAAUAUUUACGAGUUAAACUACCACUAAAUCCAACUGCUAGGGAAUUUCAACCAGAUGUAAAGUCUGAAGCACUGUCUGAGGAUGUGAAGUCCAUACCAGGACAACAGAGGAUUGAGCAUCA`, the bound/input enrichment was 0.15 ratio (UNK zinc fingers 1-6, GST-SBP tag; RNA Bind-n-Seq; RNA, in vitro; not given, RNA with constant flanks, human and mouse sites, ends assumed; baseline: input RNA pool, higher = stronger binding).
The E-score of `CGTATCGC` is reported as 0.0498 (Histone acetyltransferase KAT6A, winged helix 2, GST fusion (KAT6A, Homo sapiens, UniProt Q92794, residues 85-181); protein binding microarray; double-stranded DNA, one strand shown, in vitro; not given, 8-mer, flanks averaged, mean of 2 arrays, mostly near background; baseline: not given, higher = stronger binding).
`GGGAGUUCUACAGUCCGACGAUCGAAGUACGACCUGUAGUGGUGCCAAAACUCCCUUCUAUGGAUGCAAGAACAGACAGAUCAUCAGACAGAAAAGGAAGCAGUUACAAGGGGAGAGAAGUGUUGGAUGGAAGACAGGUUGUUCAACAGAGGAUUGAGCAUCA` has a bound/input enrichment of 0.395 ratio (UNK zinc fingers 1-6, GST-SBP tag; RNA Bind-n-Seq; RNA, in vitro; not given, RNA with constant flanks, human and mouse sites, ends assumed; baseline: input RNA pool, higher = stronger binding).
With `CCCATAGATTGCGGGCACATGGCGCAGTTGGTAGCGGTCTTGATTCGCTTGACGCTGCTG` the fluorescence intensity was 12600 a.u. (PHO4 full length, GST-tagged; competition protein-binding microarray; double-stranded DNA, one strand shown, in vitro; 2 µM, whole 60-bp probe, lowest competitor level, together with: Cbf1 competitor, 0.05 µM; higher = stronger binding).
With `GGGAGUUCUACAGUCCGACGAUCAUUCAUCUCUUACUUAGUGUCCAAAAUUACUGAGGGUUUGAAACAUUCAGUAGUUUCACAUAGAGCUACAUUGGCAGGUGCUUUAAUACUAUCAUAGUGAGAUCAGAUACCAUUGUAGUACAACAGAGGAUUGAGCAUCA` the bound/input enrichment was 0.645 ratio (UNK zinc fingers 1-6, SBP tag; RNA Bind-n-Seq; RNA, in vitro; 100 nM, RNA with constant flanks, vertebrate orthologous sites, ends assumed; baseline: input RNA pool, higher = stronger binding).
The fold induction of `PhoQ, residues 284 288 289 292 302 303 ALSMDL` is reported as 9.45 (PhoP, residues 12 14 15 18 19 SPWRL (Escherichia coli, UniProt P23836); Sort-seq, item: YFP reporter; E. coli; PhoQ-PhoP variant library, together with: 10 µM Mg2+; baseline: high Mg2+ state, higher = stronger signaling).
`TATGGCGAGCCACATCATGTGATTGCCGTTGAGGTTGTCTTGATTCGCTTGACGCTGCTG` has a fluorescence intensity of 6530 a.u. (PHO4 full length, GST-tagged; competition protein-binding microarray; double-stranded DNA, one strand shown, in vitro; 2 µM, whole 60-bp probe, lowest competitor level, together with: Cbf1 competitor, 0.05 µM; higher = stronger binding).
With `GGGAGUUCUACAGUCCGACGAUCCUACUAUGAACAACUCAGGGCAGUAUUCUCGAUAUCCUUACAGUAACCUAAAUCAGGGAUUAGUUAACAAUACAGGGAUGAAUCAAAAUUUAGGCCUUACAAAUAAUCCUCCAAUGAGUCCAACAGAGGAUUGAGCAUCA` the bound/input enrichment was 1.84 ratio (UNK zinc fingers 1-6, SBP tag; RNA Bind-n-Seq; RNA, in vitro; 100 nM, RNA with constant flanks, vertebrate orthologous sites, ends assumed; baseline: input RNA pool, higher = stronger binding).

For quick reference, copied from above:
The fold induction of `PhoQ, residues 284 288 289 292 302 303 ALSMDL` is reported as 9.45 (PhoP, residues 12 14 15 18 19 SPWRL (Escherichia coli, UniProt P23836); Sort-seq, item: YFP reporter; E. coli; PhoQ-PhoP variant library, together with: 10 µM Mg2+; baseline: high Mg2+ state, higher = stronger signaling).
